{"data": "Published values gathered from unrelated publications", "note": "Numbered parts are unrelated; each lists some results of a single study. Changes are numbered by the printed parent chain."}
{"data": "Set 1", "target": "Sal-like protein 4, full length isoform A (SALL4, Homo sapiens, UniProt Q9UJQ4, residues 1-1053)", "technique": "universal PBM", "form": "double-stranded DNA, one strand shown", "sample": "in vitro", "concentration": "600 nM", "notes": "8-mer, flanks averaged, mean of replicates", "direction": "higher = stronger binding", "sequence of UniProt Q9UJQ4 (whole entry, looked up)": "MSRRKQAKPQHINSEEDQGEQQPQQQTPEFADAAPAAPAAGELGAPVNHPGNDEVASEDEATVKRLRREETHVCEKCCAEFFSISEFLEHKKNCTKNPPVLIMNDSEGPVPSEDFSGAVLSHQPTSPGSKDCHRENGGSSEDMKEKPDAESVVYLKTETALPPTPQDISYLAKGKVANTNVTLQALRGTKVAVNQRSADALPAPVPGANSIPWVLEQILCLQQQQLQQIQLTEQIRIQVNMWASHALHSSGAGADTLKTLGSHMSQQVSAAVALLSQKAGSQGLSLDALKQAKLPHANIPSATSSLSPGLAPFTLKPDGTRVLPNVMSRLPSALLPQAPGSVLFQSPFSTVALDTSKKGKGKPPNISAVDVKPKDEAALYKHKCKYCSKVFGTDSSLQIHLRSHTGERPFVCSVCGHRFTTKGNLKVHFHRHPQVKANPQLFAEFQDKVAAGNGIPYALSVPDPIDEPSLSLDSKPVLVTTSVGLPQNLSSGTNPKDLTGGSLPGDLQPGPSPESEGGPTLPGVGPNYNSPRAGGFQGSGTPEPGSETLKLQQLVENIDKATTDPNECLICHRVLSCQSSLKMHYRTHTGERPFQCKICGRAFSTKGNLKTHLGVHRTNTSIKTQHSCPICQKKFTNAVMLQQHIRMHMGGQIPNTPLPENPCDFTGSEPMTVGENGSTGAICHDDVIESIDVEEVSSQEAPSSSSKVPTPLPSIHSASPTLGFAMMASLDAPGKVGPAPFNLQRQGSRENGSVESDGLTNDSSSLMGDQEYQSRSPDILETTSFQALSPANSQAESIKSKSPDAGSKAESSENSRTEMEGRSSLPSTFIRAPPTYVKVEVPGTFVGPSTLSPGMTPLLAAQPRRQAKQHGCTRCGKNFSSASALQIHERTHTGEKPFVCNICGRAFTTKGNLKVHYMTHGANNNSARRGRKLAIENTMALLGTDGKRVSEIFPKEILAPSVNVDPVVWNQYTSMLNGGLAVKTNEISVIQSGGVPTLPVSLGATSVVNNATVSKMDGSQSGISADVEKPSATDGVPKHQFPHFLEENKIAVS"}
{"Sequence": "AGTACAAT", "E-score": 0.201}
{"Sequence": "CATCGGAA", "E-score": 0.0715}
{"Sequence": "GGCCATAC", "E-score": -0.169}
{"Sequence": "AACCTTTC", "E-score": -0.0715}
{"Sequence": "ATAAGGGC", "E-score": 0.0213}
{"Sequence": "GGGGAAAA", "E-score": 0.0215}
{"Sequence": "CGGGCGCC", "E-score": -0.395}
{"Sequence": "CCAGAGAG", "E-score": -0.223}
{"Sequence": "ACCCGTAG", "E-score": -0.281}
{"Sequence": "ACTAGATC", "E-score": 0.0479}
{"Sequence": "ATGAGTTG", "E-score": 0.027}
{"Sequence": "CCGGTTAC", "E-score": -0.194}
{"Sequence": "GGCCGCTA", "E-score": -0.298}
{"Sequence": "CCCCATCC", "E-score": -0.27}
{"Sequence": "TACTACCA", "E-score": 0.0483}
{"Sequence": "CAGATTAA", "E-score": 0.192}
{"Sequence": "AAACTAAG", "E-score": 0.234}
{"Sequence": "AACGTCCT", "E-score": 0.0937}
{"Sequence": "CAAGGCCC", "E-score": -0.291}
{"Sequence": "CGAGACGA", "E-score": -0.163}
{"Sequence": "CCTTTTTC", "E-score": 0.0331}
{"Sequence": "ATGTTTGG", "E-score": 0.197}
{"Sequence": "CCCTGAGG", "E-score": -0.318}
{"Sequence": "TATCTGGA", "E-score": 0.0929}
{"Sequence": "GGACGACA", "E-score": -0.138}
{"data": "Set 2", "target": "ABI1, truncated, D143A, DHFR fusion (Arabidopsis thaliana)", "technique": "DHFR PCA, deep sequencing", "sample": "yeast", "notes": "methotrexate growth selection, single substitutions", "added": "(+)-ABA 2500 µM", "relative to": "wild-type fitted maximum", "direction": "higher = stronger binding", "starting sequence": "PYL1, truncated, DHFR fusion (Arabidopsis thaliana); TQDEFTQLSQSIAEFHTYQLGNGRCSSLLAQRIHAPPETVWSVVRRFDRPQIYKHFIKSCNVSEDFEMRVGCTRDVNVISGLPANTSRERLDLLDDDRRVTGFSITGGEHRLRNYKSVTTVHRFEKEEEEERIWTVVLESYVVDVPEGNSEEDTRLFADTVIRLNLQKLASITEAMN"}
{"Change": "V78P", "relative binding score [%]": 89.6}
{"Change": "N114I", "relative binding score [%]": -6.47}
{"Change": "N149E", "relative binding score [%]": 70.9}
{"Change": "T119Q", "relative binding score [%]": 101}
{"Change": "R24N", "relative binding score [%]": 99.1}
{"Change": "N77C", "relative binding score [%]": 97.3}
{"Change": "Y53D", "relative binding score [%]": 12.1}
{"Change": "V145L", "relative binding score [%]": 93.4}
{"Change": "L91H", "relative binding score [%]": 37.4}
{"Change": "N61R", "relative binding score [%]": 99.5}
{"Change": "V44T", "relative binding score [%]": 76}
{"Change": "R49A", "relative binding score [%]": 92.9}
{"Change": "E64T", "relative binding score [%]": 91.2}
{"Change": "R74V", "relative binding score [%]": -1.25}
{"Change": "T154Y", "relative binding score [%]": 47.2}
{"Change": "L20C", "relative binding score [%]": 102}
{"Change": "I57T", "relative binding score [%]": 84.1}
{"Change": "L138A", "relative binding score [%]": 74.2}
{"Change": "P83I", "relative binding score [%]": 24.7}
{"Change": "E174S", "relative binding score [%]": 93.1}
{"Change": "T120M", "relative binding score [%]": 51.9}
{"Change": "L112H", "relative binding score [%]": 5.93}
{"Change": "I172F", "relative binding score [%]": 92.5}
{"Change": "E147S", "relative binding score [%]": 94.2}
{"Change": "E131H", "relative binding score [%]": 94.9}
{"data": "Set 3", "target": "CCNF, cyclin fold, Cln2 fusion (human)", "technique": "yeast growth competition, sequencing", "sample": "yeast", "notes": "strong parent motif", "relative to": "not given", "direction": "higher = stronger binding", "starting sequence": "BRCA2 docking peptide (human); PSIKRNLLNEFDR; partner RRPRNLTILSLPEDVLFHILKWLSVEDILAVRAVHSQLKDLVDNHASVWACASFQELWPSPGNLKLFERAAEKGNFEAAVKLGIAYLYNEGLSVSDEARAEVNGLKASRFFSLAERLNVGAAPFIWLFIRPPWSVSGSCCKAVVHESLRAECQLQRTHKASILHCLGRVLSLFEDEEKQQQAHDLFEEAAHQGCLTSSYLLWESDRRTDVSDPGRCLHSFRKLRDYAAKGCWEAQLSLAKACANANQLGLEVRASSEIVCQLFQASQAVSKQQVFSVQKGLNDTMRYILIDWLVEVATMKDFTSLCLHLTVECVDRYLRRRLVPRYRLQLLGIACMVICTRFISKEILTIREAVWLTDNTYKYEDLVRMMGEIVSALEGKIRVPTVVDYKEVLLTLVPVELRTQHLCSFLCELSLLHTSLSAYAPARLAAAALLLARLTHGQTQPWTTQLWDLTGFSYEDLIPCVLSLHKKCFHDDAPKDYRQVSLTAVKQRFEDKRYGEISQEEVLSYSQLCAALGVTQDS"}
{"Change": "R5A L7A", "normalised enrichment score": -0.159}
{"Change": "I3M", "normalised enrichment score": 0.403}
{"Change": "R5P", "normalised enrichment score": 1.02}
{"Change": "S2M", "normalised enrichment score": 1.49}
{"Change": "F11S", "normalised enrichment score": -0.144}
{"Change": "N9G", "normalised enrichment score": 3.4}
{"Change": "L7N", "normalised enrichment score": -0.436}
{"Change": "E10P", "normalised enrichment score": 2.32}
{"Change": "P1W", "normalised enrichment score": 4.15}
{"Change": "S2R", "normalised enrichment score": 2.28}
{"Change": "I3L", "normalised enrichment score": 2.45}
{"Change": "D12M", "normalised enrichment score": 3.68}
{"Change": "P1K", "normalised enrichment score": 4.82}
{"Change": "R13K", "normalised enrichment score": 2.35}
{"Change": "K4Y", "normalised enrichment score": 1.76}
{"Change": "D12P", "normalised enrichment score": 2.65}
{"data": "Set 4", "target": "Prothrombin, mature alpha-thrombin (F2, Homo sapiens, UniProt P00734)", "technique": "aptamer microarray, sandwich", "form": "DNA with 2'F-ANA", "sample": "in vitro", "concentration": "200 nM", "notes": "whole 15-mer aptamer, many near background", "added": "Cy3 exosite-II aptamer, 400 nM", "direction": "higher = stronger binding", "sequence": "GGTTGGTGTGGTTGG"}
{"Modification": "2'F-ANA at 2 3 4 5 6 9 12 13", "mean fluorescence intensity": "99.9 a.u."}
{"Modification": "2'F-ANA at 1 4 8 9 11 12 13 14 15", "mean fluorescence intensity": "54.1 a.u."}
{"Modification": "2'F-ANA at 4 8 10 11 12 15", "mean fluorescence intensity": "95.8 a.u."}
{"Modification": "2'F-ANA at 2 4 5 6 8 10 11 12 14", "mean fluorescence intensity": "47 a.u."}
{"Modification": "2'F-ANA at 1 4 5 7 8 9 13 15", "mean fluorescence intensity": "48.7 a.u."}
{"Modification": "2'F-ANA at 1 2 3 4 5 6 7 8 9 10 15", "mean fluorescence intensity": "51.2 a.u."}
{"Modification": "2'F-ANA at 2 4 7 11 14 15", "mean fluorescence intensity": "109 a.u."}
{"Modification": "2'F-ANA at 1 2 3 5 11 12 13 15", "mean fluorescence intensity": "75 a.u."}
{"Modification": "2'F-ANA at 1 4 5 8 10 11 12", "mean fluorescence intensity": "47.6 a.u."}
{"Modification": "2'F-ANA at 1 2 3 4 7 8 11", "mean fluorescence intensity": "210 a.u."}
{"Modification": "2'F-ANA at 1 2 5 6 8 11 13 14", "mean fluorescence intensity": "59.4 a.u."}
{"Modification": "2'F-ANA at 1 3 4 5 6 7 8 10 11 12 14 15", "mean fluorescence intensity": "50.2 a.u."}
{"Modification": "2'F-ANA at 1 2 5 8 9 10 13 14", "mean fluorescence intensity": "50.9 a.u."}
{"Modification": "2'F-ANA at 1 3 7 10 14", "mean fluorescence intensity": "58.7 a.u."}
{"Modification": "2'F-ANA at 2 4 5 7 8 9 12 13 14 15", "mean fluorescence intensity": "49.1 a.u."}
{"Modification": "2'F-ANA at 1 3 4 7 8 9 14", "mean fluorescence intensity": "73.2 a.u."}
{"Modification": "2'F-ANA at 1 2 3 4 6 8 11 14 15", "mean fluorescence intensity": "58.8 a.u."}
{"Modification": "2'F-ANA at 3 6 7 8 9 11 12", "mean fluorescence intensity": "1120 a.u."}
{"Modification": "2'F-ANA at 1 2 3 6 8 9 11 13 14 15", "mean fluorescence intensity": "65.2 a.u."}
{"Modification": "2'F-ANA at 1 2 3 4 6 7 8 10 11 12 14", "mean fluorescence intensity": "54.2 a.u."}
{"Modification": "2'F-ANA at 2 3 4 6 8 9 11 12 13 14", "mean fluorescence intensity": "231 a.u."}
{"Modification": "2'F-ANA at 1 4 5 6 7 8 9 12 14", "mean fluorescence intensity": "45.8 a.u."}
{"Modification": "2'F-ANA at 1 3 5 7 9 11 13 14 15", "mean fluorescence intensity": "44.3 a.u."}
{"Modification": "2'F-ANA at 1 2 5 6 7 8 9 11 12 13 14", "mean fluorescence intensity": "49 a.u."}
{"Modification": "2'F-ANA at 2 3 4 6 7 8 9 10 11 14 15", "mean fluorescence intensity": "197 a.u."}
{"note": "Excerpt of the above (set 1):"}
{"Sequence": "ACTAGATC", "E-score": 0.0479}
{"Sequence": "ATGAGTTG", "E-score": 0.027}
{"Sequence": "CCGGTTAC", "E-score": -0.194}
{"Sequence": "GGCCGCTA", "E-score": -0.298}
{"Sequence": "CCCCATCC", "E-score": -0.27}
{"Sequence": "TACTACCA", "E-score": 0.0483}
{"Sequence": "CAGATTAA", "E-score": 0.192}
{"Sequence": "AAACTAAG", "E-score": 0.234}
{"Sequence": "AACGTCCT", "E-score": 0.0937}
{"Sequence": "CAAGGCCC", "E-score": -0.291}
{"Sequence": "CGAGACGA", "E-score": -0.163}
{"Sequence": "CCTTTTTC", "E-score": 0.0331}
{"Sequence": "ATGTTTGG", "E-score": 0.197}
{"Sequence": "CCCTGAGG", "E-score": -0.318}
{"Sequence": "TATCTGGA", "E-score": 0.0929}
